Assay results gathered from unrelated publications.
Numbered parts are unrelated; each lists some results of a single study.

Sample 1
Target: RNA binding protein fox-1 homolog 2, RRM domain, GST-SBP tag (RBFOX2, Homo sapiens, UniProt O43251-10, residues 100-194)
Technique: RNA Bind-n-Seq
Form: RNA
Matrix: in vitro
Tested at: 365 nM
Notes: natural RNA segment, single round, ends assumed
Baseline: no-protein control
Direction: higher = stronger binding
Quantity: RBNS enrichment (R)
All sequences stand within: GGGAGUUCUACAGUCCGACGAUC … UGGAAUUCUCGGGUGCCAA
Construct (chain): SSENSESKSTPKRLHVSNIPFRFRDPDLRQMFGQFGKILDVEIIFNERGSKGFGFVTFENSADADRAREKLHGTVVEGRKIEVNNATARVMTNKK
UCCUCUGCUGAGUUGUGGGAGGCAGACCUCAGUUUGCUUGUUUUUUGUGAAAGCUAACUUUAUGAUUUCAAGCACACUUUCUACAUGAGAAACCCCUAAUGUGUGUCCAU: 0.525
GAGUGCCUGCCUCGGCUGUGGCACUUCCAGGUUCGACUGAAUCAAGCAUCUGAAGACUGGGUUUUUUUGUUGUUGUUGUUCCCCUUACAGACAAAAUGAAGACUAUCAUG: 2.44
UUUGCAGAUGUAAUAAACUUUAAUAUAAAGGAGUCCUAUGAACUCUACUGCUUCUGCUUCUUCUUCUCUGGACUGGUGGUAUAGAUAUAGCCACCCUUUGCCCAAACCCU: 0.234
UACCUUACCAUUGUUAGGACAGCGUGAGUAGACCUGCUUGCUCUUCUCACUUUCCUCAUUGGCUUAUUAAUUAGCUCCUUACUUUGUUGCCUUUGCUUCAAAUGGUUUGA: 5.74
ACUAUGUAAUAAAUGGUUAACUUUCAAAUGAUGCUGCUGCCAAAAUUAUAUUAAUAGUGAGUUUCAGGCCCCUGGGCAUUUUGUACCAUGUAAUUAUCCUCUGGUGAUGC: 0.466
AAGCCAGGUAGGUAGUCUGAGUCAGGAUUGGAUCAACAGCCUCCUCUCUUGGGGACUCUCAAGAGCCUGUGUUCAUCUAGAAGUAGUAGUUUGAUUCUGGUUUCCCUCCU: 0.466
CUCCCCUAGUUGGCCACUGGGGCCACCACCCUGACCACCACUGUGCCCCUCAUUGUUACUGCCUUGUGAGAUAAAAACUGAUUAAACCUUUGUGGCUGUGGUUGGCUGAC: 1.2
GCAUGUGAGCACAUGCGUAUAUGUGCGUCUCUCUUUCUCCCUCACCCCCAGGUGUUGCCAUUUCUCUGCUUACCCUUCACCUUUGGUGCAGAGGUUUCUUGAAUAUCUGC: 0.5

Sample 2
Target: Interferon regulatory factor 5, full length, phosphomimetic (IRF5, Homo sapiens, UniProt Q13568-2, residues 1-514, S451D/S453D/S456D/S462D)
Technique: protein-binding microarray
Form: double-stranded DNA, one strand shown
Matrix: in vitro
Tested at: 940 nM top
Notes: 60-bp whole probe
With: salmon DNA 0.4 mg/ml
Baseline: random background probes
Direction: higher = stronger binding
Quantity: fitted relative affinity
All sequences stand within: GCCTAGCAC … GTCTTGATTCGCTTGACGCTGCTG
GACGGACTGGGTATAGGGACGTGCTAG: -0.359 z-score
GACGGACTGGGGACTGCGGACGTGCTA: -0.373 z-score
TTAGAACTGAGTATTGATTAGTGCTAG: 0.198 z-score
TCATGTTTCCATCTCTCACTGTGCTAG: 1.61 z-score
TCACACATGCATCTCCCACTGTGCTAG: 0.597 z-score
TTAGAACTGAGTCTCCATTAGTGCTAG: -0.255 z-score
GACGAACTGGGGTTGCGAGACGTGCTA: 0.011 z-score
TTAGGACTGGGGCTTCGGTTAGTGCTA: -0.476 z-score
GACGGTATCGACTTTCGGGAGGTGCTA: 4.46 z-score
CTCTTCTTGCATCTGGGTATGTGCTAG: 0.461 z-score
TCAGGTATCCTTCTCCTTTAGTGCTAG: 0.901 z-score
ATCCCATTAAATTTTAATAAGTGCTAG: -0.0271 z-score
TTAAGTTTCGGGTTTCGGTTAGTGCTA: 11.1 z-score
TTTGCTTTCTTTATGTACTCGTGCTAG: 2.17 z-score
AAACGGGCTTCTTTTTCTCAGGTGCTA: 0.525 z-score
CCCCCAGGATTCAATTACCAGTGCTAG: 0.255 z-score
GACGAACCGGGGTATCGAGACGTGCTA: 0.951 z-score
GACGAAATCGGGTATCGAGACGTGCTA: 0.941 z-score
AGCCAGGCAACCTATGGCCTGTGCTAG: -1.04 z-score

Sample 3
Target: Sal-like protein 4, full length isoform A (SALL4, Homo sapiens, UniProt Q9UJQ4, residues 1-1053)
Chain of UniProt Q9UJQ4 (whole entry, looked up): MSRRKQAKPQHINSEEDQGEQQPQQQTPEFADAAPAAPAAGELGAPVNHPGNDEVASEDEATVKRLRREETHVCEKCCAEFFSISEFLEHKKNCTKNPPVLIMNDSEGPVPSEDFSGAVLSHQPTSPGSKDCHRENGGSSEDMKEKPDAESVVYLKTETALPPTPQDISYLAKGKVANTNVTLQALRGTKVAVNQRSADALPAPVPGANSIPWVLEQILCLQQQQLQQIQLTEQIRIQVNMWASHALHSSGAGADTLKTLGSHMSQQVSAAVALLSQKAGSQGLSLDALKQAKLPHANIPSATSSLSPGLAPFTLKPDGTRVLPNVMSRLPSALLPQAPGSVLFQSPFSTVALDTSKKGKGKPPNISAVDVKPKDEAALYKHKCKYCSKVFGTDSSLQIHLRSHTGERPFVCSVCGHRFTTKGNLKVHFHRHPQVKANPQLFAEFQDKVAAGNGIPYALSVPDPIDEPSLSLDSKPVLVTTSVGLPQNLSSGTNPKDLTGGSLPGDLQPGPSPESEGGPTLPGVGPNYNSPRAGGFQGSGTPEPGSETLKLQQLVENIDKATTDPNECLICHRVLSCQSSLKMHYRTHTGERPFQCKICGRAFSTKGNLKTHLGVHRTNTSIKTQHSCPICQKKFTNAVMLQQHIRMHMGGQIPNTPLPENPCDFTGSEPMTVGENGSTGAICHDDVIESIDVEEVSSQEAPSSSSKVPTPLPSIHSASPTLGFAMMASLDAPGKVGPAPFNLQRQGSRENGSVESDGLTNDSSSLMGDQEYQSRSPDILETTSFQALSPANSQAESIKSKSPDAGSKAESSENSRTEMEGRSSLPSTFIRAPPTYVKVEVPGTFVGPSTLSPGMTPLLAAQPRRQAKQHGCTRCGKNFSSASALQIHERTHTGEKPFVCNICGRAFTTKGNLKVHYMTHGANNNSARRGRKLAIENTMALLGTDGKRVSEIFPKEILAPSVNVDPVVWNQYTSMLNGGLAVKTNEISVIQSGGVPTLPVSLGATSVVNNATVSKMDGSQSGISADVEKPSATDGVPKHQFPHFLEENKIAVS
Technique: universal PBM
Form: double-stranded DNA, one strand shown
Matrix: in vitro
Tested at: 600 nM
Notes: 8-mer, flanks averaged, mean of replicates
Direction: higher = stronger binding
Quantity: E-score
AAGCTTCT: 0.0944
AACTATAC: 0.245
CATGTGCC: -0.0286
AGCTTGAC: -0.164
CTCGGACC: -0.212
TGGGGAAA: -0.0147
CGTACGCC: -0.176
CTTCGACA: -0.0321
CCTTGAGA: 0.0252
ATGACAAA: 0.26
TAGTCATA: 0.304
CGACCTAA: -0.0244
GTGAGTGA: -0.127
CTACAAAG: 0.0783
CGGTCCAA: -0.318
AACGACTG: -0.113
AAGCTCCG: -0.185
TGGAATAA: 0.213
TCAATGCA: 0.152
ACGGTCTG: -0.171
AAGGTCCG: -0.382
CCTGCTAC: 0.0268
AAGTGTGG: 0.00347
AATTGTAT: 0.297
CTCGTACC: -0.025

Sample 4
Target: Ras GTPase-activating protein-binding protein 1, C-terminal RGG region (G3BP1, Homo sapiens, UniProt Q13283)
Chain of UniProt Q13283 (whole entry, looked up): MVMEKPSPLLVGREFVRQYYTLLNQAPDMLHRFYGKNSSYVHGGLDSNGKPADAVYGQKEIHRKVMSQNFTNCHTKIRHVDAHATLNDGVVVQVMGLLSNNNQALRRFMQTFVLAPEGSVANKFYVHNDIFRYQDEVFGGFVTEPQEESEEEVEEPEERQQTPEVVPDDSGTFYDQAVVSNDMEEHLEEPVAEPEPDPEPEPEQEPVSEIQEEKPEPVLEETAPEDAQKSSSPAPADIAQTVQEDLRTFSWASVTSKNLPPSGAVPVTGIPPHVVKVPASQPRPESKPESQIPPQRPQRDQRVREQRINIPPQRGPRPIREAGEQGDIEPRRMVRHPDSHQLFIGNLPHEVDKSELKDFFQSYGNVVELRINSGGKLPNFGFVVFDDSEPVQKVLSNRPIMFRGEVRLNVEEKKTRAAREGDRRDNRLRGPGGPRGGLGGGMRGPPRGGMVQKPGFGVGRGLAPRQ
Technique: RNA Bind-n-Seq
Form: RNA
Matrix: in vitro
Tested at: 1 µM
Notes: whole 134-nt RNA, ends assumed
With: 150 mM KCl
Baseline: input library
Direction: higher = stronger binding
Quantity: log2 enrichment
All sequences stand within: GGGAGUUCUACAGUCCGACGAUC … UGGAAUUCUCGGGUGUCAAGG
UCAAGUCCUGUGCUACACAUCGUAUGUACCGAAUCGGGGAAGGAAGGGGAAGGGGAAAGUAUUAUGUUACGCCGUUCGGAUCUGCACUUC: 0.659
UCCUGUGCUACACAUCGUAUGUACCGAAUCGGGGUUUGGGGUUUUUGGGGUUUUUGGGGAAAGUAUUAUGUUACGCCGUUCGGAUCUGCA: 2.26
CUGUGCUACACAUCGUAUGUACCGAAUCGGGGAAAAAGGGGAAAAAAAGGGGUUUUUGGGGAAAGUAUUAUGUUACGCCGUUCGGAUCUG: 0.742
GUCCUGUGCUACACAUCGUAUGUACCGAAUCGGGGUUUUUGGGUUUUUGGGUUUUUGGGAAAGUAUUAUGUUACGCCGUUCGGAUCUGCA: -0.124
UCCUGUGCUACACAUCGUAUGUACCGAAUCGGGGAAAAAAAGGGGUUUGGGGAAAGGGGAAAGUAUUAUGUUACGCCGUUCGGAUCUGCA: 2.88
UAACUUAAGAGGAGGAUCUGAUGGAUAUGGCAGUGGACGUGGAUUUGGGGAUGGCUAUAAUGGGUAUGGAGGAGGACCUGGAGGUGGCAA: -0.922
CAAGUCCUGUGCUACACAUCGUAUGUACCGAAUCGGCCCGGGGCCCGGCCCGGGGAAAGUAUUAUGUUACGCCGUUCGGAUCUGCACUUC: -1.73
AAGUCCUGUGCUACACAUCGUAUGUACCGAAUCGGCCCCCGGGCCCCCGGCCCCCGGAAAGUAUUAUGUUACGCCGUUCGGAUCUGCACU: -1.57
AAGUCCUGUGCUACACAUCGUAUGUACCGAAUCGGAGGAAAAAAAGGUUUUUUUGGAAAGUAUUAUGUUACGCCGUUCGGAUCUGCACUU: -2.12

Some of these lines once more (sample 3):
AACGACTG: -0.113
AAGCTCCG: -0.185
TGGAATAA: 0.213
TCAATGCA: 0.152
ACGGTCTG: -0.171
AAGGTCCG: -0.382
CCTGCTAC: 0.0268
